Measured values of several laboratories.
Each line is one published result; not all experiments were run side by side. “And” joins repeats or separate records; there may be more than shown. Numbers after ± are the reported error.
KLRK1 with MICA: NKG2-D type II integral membrane protein, with MICA (KLRK1, Homo sapiens, UniProt P26718)
UniProt P26718, sequence (whole entry, looked up): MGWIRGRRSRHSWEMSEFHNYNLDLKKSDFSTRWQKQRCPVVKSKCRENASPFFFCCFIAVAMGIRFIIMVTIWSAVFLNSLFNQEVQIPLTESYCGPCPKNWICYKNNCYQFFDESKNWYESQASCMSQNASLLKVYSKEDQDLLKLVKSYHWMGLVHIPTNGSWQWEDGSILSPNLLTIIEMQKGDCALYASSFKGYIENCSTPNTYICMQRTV
blaNDM-1: Metallo-beta-lactamase type 2 (blaNDM-1, Klebsiella pneumoniae, UniProt C7C422)
UniProt C7C422, sequence (whole entry, looked up): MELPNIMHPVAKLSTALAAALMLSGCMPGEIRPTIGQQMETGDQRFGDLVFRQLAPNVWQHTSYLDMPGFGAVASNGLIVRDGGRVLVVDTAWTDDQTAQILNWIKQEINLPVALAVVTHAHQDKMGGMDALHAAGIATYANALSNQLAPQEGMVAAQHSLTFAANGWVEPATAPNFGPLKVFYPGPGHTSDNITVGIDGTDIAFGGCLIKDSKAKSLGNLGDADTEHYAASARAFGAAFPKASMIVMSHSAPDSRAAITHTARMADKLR
UniProt Q86U44, sequence (whole entry, looked up): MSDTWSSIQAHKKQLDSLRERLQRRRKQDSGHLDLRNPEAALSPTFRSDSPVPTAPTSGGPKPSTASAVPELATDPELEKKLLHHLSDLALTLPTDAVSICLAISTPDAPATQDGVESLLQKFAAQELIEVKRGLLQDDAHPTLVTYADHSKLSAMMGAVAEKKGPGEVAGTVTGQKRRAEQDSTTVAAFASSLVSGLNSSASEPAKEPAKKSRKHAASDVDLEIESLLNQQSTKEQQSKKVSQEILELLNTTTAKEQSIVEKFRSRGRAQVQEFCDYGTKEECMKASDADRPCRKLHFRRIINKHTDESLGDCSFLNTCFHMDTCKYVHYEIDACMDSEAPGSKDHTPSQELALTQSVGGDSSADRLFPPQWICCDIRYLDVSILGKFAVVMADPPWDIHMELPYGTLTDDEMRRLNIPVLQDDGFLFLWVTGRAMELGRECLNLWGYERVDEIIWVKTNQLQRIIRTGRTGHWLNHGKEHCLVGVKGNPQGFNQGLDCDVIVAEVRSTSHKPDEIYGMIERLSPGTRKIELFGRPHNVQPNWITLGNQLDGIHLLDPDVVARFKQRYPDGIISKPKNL
UniProt P16662, sequence (whole entry, looked up): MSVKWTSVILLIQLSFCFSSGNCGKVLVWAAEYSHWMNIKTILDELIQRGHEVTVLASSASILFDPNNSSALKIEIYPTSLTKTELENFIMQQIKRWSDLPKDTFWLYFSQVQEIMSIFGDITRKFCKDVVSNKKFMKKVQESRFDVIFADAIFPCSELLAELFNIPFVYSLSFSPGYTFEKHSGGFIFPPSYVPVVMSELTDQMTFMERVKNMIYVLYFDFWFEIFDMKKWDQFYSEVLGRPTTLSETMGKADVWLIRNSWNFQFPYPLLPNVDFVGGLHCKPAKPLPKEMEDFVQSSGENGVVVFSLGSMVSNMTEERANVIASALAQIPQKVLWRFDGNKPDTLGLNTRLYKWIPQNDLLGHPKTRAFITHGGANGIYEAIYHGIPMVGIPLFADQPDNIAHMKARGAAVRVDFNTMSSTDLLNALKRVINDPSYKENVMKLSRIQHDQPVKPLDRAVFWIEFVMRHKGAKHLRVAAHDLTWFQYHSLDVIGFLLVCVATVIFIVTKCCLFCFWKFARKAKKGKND
UniProt P35235, sequence (whole entry, looked up): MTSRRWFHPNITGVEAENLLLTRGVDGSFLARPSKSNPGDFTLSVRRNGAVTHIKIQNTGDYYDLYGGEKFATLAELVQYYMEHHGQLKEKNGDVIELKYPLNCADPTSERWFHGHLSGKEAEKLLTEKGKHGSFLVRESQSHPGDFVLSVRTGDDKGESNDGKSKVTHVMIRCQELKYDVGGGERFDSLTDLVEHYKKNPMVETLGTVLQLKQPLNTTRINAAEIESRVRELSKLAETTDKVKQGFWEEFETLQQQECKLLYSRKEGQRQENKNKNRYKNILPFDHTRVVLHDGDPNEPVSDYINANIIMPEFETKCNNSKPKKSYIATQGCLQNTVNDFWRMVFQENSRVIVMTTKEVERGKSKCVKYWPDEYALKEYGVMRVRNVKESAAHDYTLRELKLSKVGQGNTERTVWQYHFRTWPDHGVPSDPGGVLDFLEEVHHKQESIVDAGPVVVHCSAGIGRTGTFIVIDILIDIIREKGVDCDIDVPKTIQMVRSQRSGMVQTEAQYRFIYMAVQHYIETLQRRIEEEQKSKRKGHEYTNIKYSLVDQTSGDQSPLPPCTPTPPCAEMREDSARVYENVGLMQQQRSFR
UniProt P63251, sequence (whole entry, looked up): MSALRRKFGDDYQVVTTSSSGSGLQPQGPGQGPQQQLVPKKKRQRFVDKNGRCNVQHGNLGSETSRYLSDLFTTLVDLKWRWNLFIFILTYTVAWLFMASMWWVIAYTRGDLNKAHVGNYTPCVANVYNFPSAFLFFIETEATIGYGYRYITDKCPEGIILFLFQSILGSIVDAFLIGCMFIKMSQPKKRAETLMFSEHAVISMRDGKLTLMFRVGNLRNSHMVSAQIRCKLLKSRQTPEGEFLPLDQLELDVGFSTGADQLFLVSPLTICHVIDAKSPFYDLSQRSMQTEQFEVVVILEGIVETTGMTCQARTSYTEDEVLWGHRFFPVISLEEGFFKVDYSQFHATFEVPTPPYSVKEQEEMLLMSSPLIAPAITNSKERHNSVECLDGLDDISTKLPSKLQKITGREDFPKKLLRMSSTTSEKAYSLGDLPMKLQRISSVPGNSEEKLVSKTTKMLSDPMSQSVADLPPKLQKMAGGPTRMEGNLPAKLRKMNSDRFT
UniProt P54764, sequence (whole entry, looked up): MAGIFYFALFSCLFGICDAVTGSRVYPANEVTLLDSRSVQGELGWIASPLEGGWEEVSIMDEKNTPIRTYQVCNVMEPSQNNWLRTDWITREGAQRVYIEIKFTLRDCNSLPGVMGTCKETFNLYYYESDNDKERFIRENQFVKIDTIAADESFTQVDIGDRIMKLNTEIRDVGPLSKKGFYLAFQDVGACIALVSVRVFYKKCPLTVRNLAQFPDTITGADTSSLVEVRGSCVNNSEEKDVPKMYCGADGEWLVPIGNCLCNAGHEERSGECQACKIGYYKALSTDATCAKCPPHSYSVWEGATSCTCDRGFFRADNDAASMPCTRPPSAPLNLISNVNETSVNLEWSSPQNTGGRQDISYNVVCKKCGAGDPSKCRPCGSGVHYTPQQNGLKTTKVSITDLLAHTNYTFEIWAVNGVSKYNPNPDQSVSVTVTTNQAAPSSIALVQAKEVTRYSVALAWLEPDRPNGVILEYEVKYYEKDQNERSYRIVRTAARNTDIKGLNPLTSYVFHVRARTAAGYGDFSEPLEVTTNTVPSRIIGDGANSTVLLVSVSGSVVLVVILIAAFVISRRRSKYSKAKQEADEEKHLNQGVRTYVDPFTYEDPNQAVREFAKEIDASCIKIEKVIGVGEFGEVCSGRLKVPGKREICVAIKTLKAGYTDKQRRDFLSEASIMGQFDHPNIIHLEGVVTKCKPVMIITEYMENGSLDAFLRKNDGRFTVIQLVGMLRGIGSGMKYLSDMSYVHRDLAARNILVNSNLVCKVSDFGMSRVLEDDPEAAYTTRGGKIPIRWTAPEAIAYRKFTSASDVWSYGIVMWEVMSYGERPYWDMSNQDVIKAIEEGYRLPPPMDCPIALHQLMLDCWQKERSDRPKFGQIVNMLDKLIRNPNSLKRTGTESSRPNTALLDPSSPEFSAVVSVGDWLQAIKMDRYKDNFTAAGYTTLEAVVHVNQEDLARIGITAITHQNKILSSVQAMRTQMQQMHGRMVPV
UniProt P40261, sequence (whole entry, looked up): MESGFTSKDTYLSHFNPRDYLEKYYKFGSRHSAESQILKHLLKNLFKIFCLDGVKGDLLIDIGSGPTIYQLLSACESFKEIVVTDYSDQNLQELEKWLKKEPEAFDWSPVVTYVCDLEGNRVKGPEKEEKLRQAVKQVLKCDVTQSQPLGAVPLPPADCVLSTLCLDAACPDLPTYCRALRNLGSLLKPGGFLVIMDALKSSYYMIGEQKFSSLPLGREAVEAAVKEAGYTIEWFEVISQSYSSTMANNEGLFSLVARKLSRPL
UniProt P48542, sequence (whole entry, looked up): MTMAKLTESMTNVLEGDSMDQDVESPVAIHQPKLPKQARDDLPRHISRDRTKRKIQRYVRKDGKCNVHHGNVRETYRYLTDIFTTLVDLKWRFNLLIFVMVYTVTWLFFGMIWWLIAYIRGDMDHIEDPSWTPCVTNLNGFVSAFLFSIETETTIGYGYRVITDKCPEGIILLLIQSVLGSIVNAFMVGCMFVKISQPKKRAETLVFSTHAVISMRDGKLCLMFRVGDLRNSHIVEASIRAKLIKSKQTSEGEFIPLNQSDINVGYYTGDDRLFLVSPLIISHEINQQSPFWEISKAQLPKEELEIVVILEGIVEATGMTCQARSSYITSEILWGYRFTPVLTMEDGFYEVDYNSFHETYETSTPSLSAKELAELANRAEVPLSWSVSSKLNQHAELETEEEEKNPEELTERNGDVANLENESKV
UniProt P39051, sequence (whole entry, looked up): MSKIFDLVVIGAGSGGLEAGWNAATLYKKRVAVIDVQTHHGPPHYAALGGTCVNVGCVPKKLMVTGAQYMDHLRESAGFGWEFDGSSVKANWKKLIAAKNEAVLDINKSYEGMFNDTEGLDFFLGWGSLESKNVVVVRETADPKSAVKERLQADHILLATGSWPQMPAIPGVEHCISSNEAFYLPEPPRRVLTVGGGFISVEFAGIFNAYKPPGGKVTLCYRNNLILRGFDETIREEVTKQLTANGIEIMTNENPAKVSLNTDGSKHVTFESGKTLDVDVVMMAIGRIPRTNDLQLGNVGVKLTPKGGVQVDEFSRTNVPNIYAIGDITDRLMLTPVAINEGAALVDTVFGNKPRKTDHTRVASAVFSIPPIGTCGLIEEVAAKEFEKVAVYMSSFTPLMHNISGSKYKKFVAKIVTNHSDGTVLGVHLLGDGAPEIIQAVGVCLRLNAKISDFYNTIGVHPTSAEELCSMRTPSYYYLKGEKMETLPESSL

CNC(=O)C1CCN(c2ccccc2NC(=O)c2ccc(-c3cc(O)ccc3C)c(C)n2)CC1 — IC50 (Ephrin type-A receptor 4 (EPHA4, Homo sapiens, UniProt P54764); target engagement in cells, BRET): 2.3 nM
CN1C(=O)[C@H](Cc2ccccc2)N(C)C(=O)[C@@H]2[C@H]1CCN2Cc1cc(Cl)cc(Cl)c1 — IC50 (KLRK1 with MICA): 19000 nM and ~19000 nM
CCCCCCC[N+](CCCCCCC)(CCCCCCC)CCCCCCC — IC50 (Potassium channel subfamily K member 18 (KCNK18, Homo sapiens, UniProt Q7Z418); ion current, inhibitor, patch clamp): 500 nM
CC[C@H](C)[C@@H]1NC(=O)[C@H](C)NC(=O)[C@H](Cc2ccccc2)NC(=O)[C@H](Cc2ccc(O)cc2)NC(=O)CSC[C@@H](C(=O)NCC(N)=O)NC(=O)[C@H](CC(C)C)NC(=O)[C@H](Cc2c[nH]c3ccccc23)NC(=O)[C@H]([C@@H](C)CC)NC(=O)[C@H]([C@@H](C)CC)NC(=O)[C@H](CCCCN)NC(=O)[C@H](Cc2c[nH]c3ccccc23)NC(=O)[C@H](CCCNC(=N)N)NC(=O)[C@H](CO)NC(=O)[C@H](CC(N)=O)NC(=O)[C@H](CCCCN)NC(=O)[C@H]([C@@H](C)O)NC(=O)[C@H]([C@@H](C)CC)NC1=O — IC50 (Nicotinamide N-methyltransferase (NNMT, Homo sapiens, UniProt P40261); enzyme activity, inhibitor, mass spectrometry): 1130 nM
CC(=O)Nc1ccc2ccn(-c3cc(NC4CCC4)n4ncc(C#N)c4n3)c2c1 — IC50 (Casein kinase II subunit alpha (CSNK2A1, Homo sapiens, UniProt P68400); target engagement in cells, BRET): 12.6 nM
O=C(O)c1ccccc1-c1c2ccc(=O)c([As]3SCCS3)c-2oc2c([As]3SCCS3)c(O)ccc12 — IC50 (Tyrosine-protein phosphatase non-receptor type 11 (Ptpn11, Mus musculus, UniProt P35235); phosphatase activity; E. coli lysate; 120 min, 37 °C, wild-type Shp2 lysate, together with: pNPP 10 mM): 6000 nM
CN(C)C(=O)C1CN1S(=O)(=O)c1ccc(N(C)C)cc1 (centres unmarked) — IC50 (Protein disulfide-isomerase A3 (PDIA3, Homo sapiens, UniProt P30101); enzyme activity, inhibitor, absorbance; pH 7.6): 200000 nM
CC(C)[C@@H]1NC(=O)[C@H](Cc2ccccc2)NC(=O)CSC[C@@H](C(N)=O)NC(=O)[C@H](CCC(=O)O)NC(=O)[C@H](CO)NC(=O)[C@H](Cc2c[nH]c3cccc(Cl)c23)NC(=O)[C@H](C2CCCCC2)NC(=O)[C@H](C(C)C)NC(=O)[C@H](Cc2ccc(O)cc2)NC(=O)[C@H](CC(=O)O)NC(=O)[C@H](Cc2c[nH]c3ccccc23)NC(=O)[C@H](Cc2ccc(N)nc2)NC(=O)[C@H](Cc2c[nH]c3ccc(Cl)cc23)NC(=O)[C@H](CCC(=O)O)NC1=O — IC50 (Interleukin-1 receptor-like 2 (IL1RL2, Homo sapiens, UniProt Q9HB29); reporter gene, inhibitor; HEK-Blue IL-36R; 6 h, together with: IL-36 0.03 ng/mL): 68 nM
CCCC[C@@H]1NC(=O)[C@H](Cc2ccccc2)NC(=O)CNC(=O)[C@H](NC(=O)[C@@H](N)Cc2ccc(O)cc2)C(C)(C)SSC(C)(C)[C@@H](C(=O)N[C@@H](Cc2c[nH]c3ccccc23)C(=O)NCc2cc(C(F)(F)F)cc(C(F)(F)F)c2)NC(=O)[C@@H]2CCCN2C1=O — IC50 (Mu-type opioid receptor (Oprm1, Rattus norvegicus, UniProt P33535)): 3720 nM
C[C@H](CS)C(=O)Nc1cc(-n2nccn2)cc2c1OCO2 — IC50 (blaNDM-1; enzyme activity, inhibitor, fluorescence; with preincubation): 1270 nM
N=C(Nc1ccc(OCCCCCOc2ccc(NC(=N)c3ccccc3)cc2)cc1)c1ccccc1 — IC50 (Inward rectifier potassium channel 2 (KCNJ2, Homo sapiens, UniProt P63252); ion current, inhibitor): 1300 nM
Nc1ncnc2c1ncn2[C@@H]1O[C@H](CSCCNC(=O)NCCc2ccccc2)[C@@H](O)[C@H]1O — IC50 (N6-adenosine-methyltransferase catalytic subunit, with METTL14 (METTL3, Homo sapiens, UniProt Q86U44); enzyme activity, inhibitor, radiometric; METTL3-METTL14 complex): > 50000 nM
CC[C@H](C)[C@@H]1NC(=O)[C@H](CCCNC(=N)N)NC(=O)[C@H](CC(N)=O)NC(=O)[C@@H]2CSSC[C@@H](C(=O)NCC(=O)N[C@@H](CCCCN)C(=O)N[C@@H](CCCCN)C(N)=O)NC(=O)[C@H](C)NC(=O)[C@H](CCCCN)NC(=O)[C@H](Cc3c[nH]c4ccccc34)NC(=O)[C@H](CSSC[C@H](NC(=O)[C@H](CC(C)C)NC(=O)[C@H](C)N)C(=O)N[C@@H](CC(N)=O)C(=O)N2)NC(=O)[C@H](CCC(N)=O)NC(=O)[C@H](Cc2c[nH]cn2)NC(=O)[C@@H]2CCCN2C(=O)[C@H]([C@@H](C)CC)NC(=O)[C@H]([C@@H](C)CC)NC1=O — IC50 (Kcnj6/Kcnj3 (Mus musculus, UniProt P48542+P63251); ion current, inhibitor, two-electrode voltage clamp; Xenopus laevis oocytes; -80 mV, 20 mM K+, together with: Gbeta1gamma2 activation): 28 ± 3 nM
CC[C@H](C)[C@@H]1NC(=O)[C@H](CC(C)C)NC(=O)CNC(=O)[C@H](CCCNC(=N)N)NC(=O)[C@H](Cc2c[nH]c3ccccc23)NC(=O)[C@H](CCSC)NC(=O)[C@H](CO)NC(=O)[C@H](CCC(=O)O)NC(=O)[C@H](Cc2ccccc2)NC(=O)[C@H](CC(=O)O)NC(=O)[C@H]([C@@H](C)O)NC(=O)CNC(=O)[C@H](CCC(=O)O)NC(=O)[C@H]([C@@H](C)O)NC(=O)CNC(=O)[C@H](CC(=O)O)NC1=O — IC50 (E3 ubiquitin-protein ligase Mdm2 (MDM2, Homo sapiens, UniProt Q00987); protein-protein interaction, inhibitor, AlphaScreen): 338 nM
CC(C)C(=O)Nc1ccccc1-c1nn[nH]n1 — IC50 (blaNDM-1; enzyme activity, inhibitor, fluorescence; with preincubation): > 100000 nM
CCn1nc(-c2cccs2)nc2c(=O)n(C)c(=O)nc1-2 — IC50 (Trypanothione reductase (TPR, Trypanosoma brucei brucei, UniProt P39051); inhibitor, DTNB-coupled colourimetric; together with: substrate at Km): 12800 nM
CC(=O)N[C@@H](CCCNC(=N)N)C(=O)N[C@H](C(=O)N1CCC[C@H]1C(=O)N[C@@H](COP(=O)(O)O)C(=O)N[C@@H](CC(C)C)C(=O)N1CCC[C@H]1C(=O)N[C@@H](C)C(=O)N1CCC[C@H]1C(c1ccccc1)c1ccccc1)[C@@H](C)O — IC50 (14-3-3 protein zeta/delta (YWHAZ, Homo sapiens, UniProt P63104); peptide binding, inhibitor, competitive fluorescence polarization; 10 µM protein, together with: 100 nM FAM-labelled diphosphorylated Tau peptide): 5300 nM
CN[C@@H](C)C(=O)N[C@H](C(=O)N1C[C@@H](NC(=O)COCCOCCOCc2cn(CCNC(=O)CN(Cc3cccs3)C(=O)[C@H](NS(=O)(=O)c3cc4ccc(O)nc4cc3Cl)c3ccccc3OC)nn2)C[C@H]1C(=O)N[C@@H]1CCCc2ccccc21)C1CCCCC1 — IC50 (UDP-N-acetylglucosamine--peptide N-acetylglucosaminyltransferase 110 kDa subunit (OGT, Homo sapiens, UniProt O15294); enzyme activity, inhibitor, fluorescence): 550 nM
CO/C(=C\C(=O)c1ccc2occc2c1OC)c1ccccc1 — IC50 (Amyloid-beta precursor protein (APP, Homo sapiens, UniProt P05067); amyloid aggregation, inhibitor, fluorescence): > 200000 nM
CC[C@@H]1CN2CCc3c([nH]c4cccc(OC)c34)[C@@H]2C[C@@H]1/C(=C\OC)C(=O)OC — IC50 (UDP-glucuronosyltransferase 2B7 (UGT2B7, Homo sapiens, UniProt P16662); enzyme activity, inhibitor; 2 h, pH 7.4): > 100000 nM
O=C(CCCOc1ccc(Cl)cc1)N[C@H]1CCOC1=O — IC50 (Transcriptional activator protein LasR (lasR, Pseudomonas aeruginosa, UniProt P25084); reporter gene, antagonist; Escherichia coli, JLD271 with LasR plasmid; together with: OdDHL 2 nM): 490 nM
CN(C)C(=O)[C@@H](NC(=O)c1cnccc1-c1ccc(C(F)(F)F)cc1)c1cc(C(F)(F)F)cc(C(F)(F)F)c1 — IC50 (KLRK1 with MICA; ligand binding, inhibitor, TR-FRET; HEK293 expressing NKG2D and DAP10; together with: MICA-Alexa647): 200 ± 30 nM
Cc1c(C(=O)CC2OC(=O)C(Cl)=C2Cl)sc2ccc(Cl)cc12 (centres unmarked) — IC50 (Genome polyprotein, 3C protease (Human hepatitis A virus genotype IB, UniProt P08617); enzyme activity, inhibitor): 54000 ± 16000 nM

Excerpt of the above:
CCCC[C@@H]1NC(=O)[C@H](Cc2ccccc2)NC(=O)CNC(=O)[C@H](NC(=O)[C@@H](N)Cc2ccc(O)cc2)C(C)(C)SSC(C)(C)[C@@H](C(=O)N[C@@H](Cc2c[nH]c3ccccc23)C(=O)NCc2cc(C(F)(F)F)cc(C(F)(F)F)c2)NC(=O)[C@@H]2CCCN2C1=O — IC50 (Mu-type opioid receptor (Oprm1, Rattus norvegicus, UniProt P33535)): 3720 nM
CC[C@H](C)[C@@H]1NC(=O)[C@H](CCCNC(=N)N)NC(=O)[C@H](CC(N)=O)NC(=O)[C@@H]2CSSC[C@@H](C(=O)NCC(=O)N[C@@H](CCCCN)C(=O)N[C@@H](CCCCN)C(N)=O)NC(=O)[C@H](C)NC(=O)[C@H](CCCCN)NC(=O)[C@H](Cc3c[nH]c4ccccc34)NC(=O)[C@H](CSSC[C@H](NC(=O)[C@H](CC(C)C)NC(=O)[C@H](C)N)C(=O)N[C@@H](CC(N)=O)C(=O)N2)NC(=O)[C@H](CCC(N)=O)NC(=O)[C@H](Cc2c[nH]cn2)NC(=O)[C@@H]2CCCN2C(=O)[C@H]([C@@H](C)CC)NC(=O)[C@H]([C@@H](C)CC)NC1=O — IC50 (Kcnj6/Kcnj3 (Mus musculus, UniProt P48542+P63251); ion current, inhibitor, two-electrode voltage clamp; Xenopus laevis oocytes; -80 mV, 20 mM K+, together with: Gbeta1gamma2 activation): 28 ± 3 nM
CC[C@H](C)[C@@H]1NC(=O)[C@H](C)NC(=O)[C@H](Cc2ccccc2)NC(=O)[C@H](Cc2ccc(O)cc2)NC(=O)CSC[C@@H](C(=O)NCC(N)=O)NC(=O)[C@H](CC(C)C)NC(=O)[C@H](Cc2c[nH]c3ccccc23)NC(=O)[C@H]([C@@H](C)CC)NC(=O)[C@H]([C@@H](C)CC)NC(=O)[C@H](CCCCN)NC(=O)[C@H](Cc2c[nH]c3ccccc23)NC(=O)[C@H](CCCNC(=N)N)NC(=O)[C@H](CO)NC(=O)[C@H](CC(N)=O)NC(=O)[C@H](CCCCN)NC(=O)[C@H]([C@@H](C)O)NC(=O)[C@H]([C@@H](C)CC)NC1=O — IC50 (Nicotinamide N-methyltransferase (NNMT, Homo sapiens, UniProt P40261); enzyme activity, inhibitor, mass spectrometry): 1130 nM
